# Measurements gathered from unrelated publications.
# Each line is one published result; not all experiments were run side by side. Values joined by “and” are separate records of one study, mostly repeats; a detail may differ. ± marks the error that the study gave. No end group written: not given here.
# CHRM1: Muscarinic acetylcholine receptor M1 (CHRM1, Homo sapiens, UniProt P11229)
# UniProt P11229, sequence (whole entry, looked up): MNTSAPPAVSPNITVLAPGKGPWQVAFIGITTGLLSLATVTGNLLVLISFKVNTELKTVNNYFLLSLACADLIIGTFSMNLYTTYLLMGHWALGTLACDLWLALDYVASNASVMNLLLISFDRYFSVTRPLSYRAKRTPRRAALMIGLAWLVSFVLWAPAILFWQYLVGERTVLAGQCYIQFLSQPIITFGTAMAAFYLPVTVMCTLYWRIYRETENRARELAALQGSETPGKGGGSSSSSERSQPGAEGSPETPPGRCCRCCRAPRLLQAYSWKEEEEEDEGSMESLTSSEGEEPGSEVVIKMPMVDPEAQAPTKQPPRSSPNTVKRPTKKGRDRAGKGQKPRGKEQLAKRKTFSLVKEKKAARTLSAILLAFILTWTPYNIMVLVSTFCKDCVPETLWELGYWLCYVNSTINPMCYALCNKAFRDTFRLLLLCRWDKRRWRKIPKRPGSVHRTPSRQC
# B1: side-chain stapled; chain WRTKQEARKSTGG (also: sidechain bridge or staple (positions not given here))
# UniProt P14780, sequence (whole entry, looked up): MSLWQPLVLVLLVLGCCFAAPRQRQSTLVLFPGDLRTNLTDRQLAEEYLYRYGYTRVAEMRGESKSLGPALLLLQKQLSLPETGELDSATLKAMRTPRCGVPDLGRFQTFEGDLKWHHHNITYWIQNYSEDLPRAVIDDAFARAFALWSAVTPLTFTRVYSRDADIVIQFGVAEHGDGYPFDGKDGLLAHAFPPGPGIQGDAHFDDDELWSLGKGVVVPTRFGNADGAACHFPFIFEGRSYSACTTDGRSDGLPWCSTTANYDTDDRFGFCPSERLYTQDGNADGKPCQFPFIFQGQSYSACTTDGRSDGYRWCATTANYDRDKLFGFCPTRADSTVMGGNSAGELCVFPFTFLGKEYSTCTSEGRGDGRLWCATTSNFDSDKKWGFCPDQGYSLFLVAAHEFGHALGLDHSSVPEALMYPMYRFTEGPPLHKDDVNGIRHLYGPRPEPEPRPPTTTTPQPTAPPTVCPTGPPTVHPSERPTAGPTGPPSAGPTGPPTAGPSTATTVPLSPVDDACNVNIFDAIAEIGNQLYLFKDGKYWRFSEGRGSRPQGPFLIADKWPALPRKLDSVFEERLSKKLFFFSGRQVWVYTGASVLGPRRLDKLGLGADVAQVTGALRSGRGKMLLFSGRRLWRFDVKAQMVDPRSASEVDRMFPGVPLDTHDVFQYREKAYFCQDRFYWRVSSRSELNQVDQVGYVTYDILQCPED
# UniProt Q9Y5Y9, sequence (whole entry, looked up): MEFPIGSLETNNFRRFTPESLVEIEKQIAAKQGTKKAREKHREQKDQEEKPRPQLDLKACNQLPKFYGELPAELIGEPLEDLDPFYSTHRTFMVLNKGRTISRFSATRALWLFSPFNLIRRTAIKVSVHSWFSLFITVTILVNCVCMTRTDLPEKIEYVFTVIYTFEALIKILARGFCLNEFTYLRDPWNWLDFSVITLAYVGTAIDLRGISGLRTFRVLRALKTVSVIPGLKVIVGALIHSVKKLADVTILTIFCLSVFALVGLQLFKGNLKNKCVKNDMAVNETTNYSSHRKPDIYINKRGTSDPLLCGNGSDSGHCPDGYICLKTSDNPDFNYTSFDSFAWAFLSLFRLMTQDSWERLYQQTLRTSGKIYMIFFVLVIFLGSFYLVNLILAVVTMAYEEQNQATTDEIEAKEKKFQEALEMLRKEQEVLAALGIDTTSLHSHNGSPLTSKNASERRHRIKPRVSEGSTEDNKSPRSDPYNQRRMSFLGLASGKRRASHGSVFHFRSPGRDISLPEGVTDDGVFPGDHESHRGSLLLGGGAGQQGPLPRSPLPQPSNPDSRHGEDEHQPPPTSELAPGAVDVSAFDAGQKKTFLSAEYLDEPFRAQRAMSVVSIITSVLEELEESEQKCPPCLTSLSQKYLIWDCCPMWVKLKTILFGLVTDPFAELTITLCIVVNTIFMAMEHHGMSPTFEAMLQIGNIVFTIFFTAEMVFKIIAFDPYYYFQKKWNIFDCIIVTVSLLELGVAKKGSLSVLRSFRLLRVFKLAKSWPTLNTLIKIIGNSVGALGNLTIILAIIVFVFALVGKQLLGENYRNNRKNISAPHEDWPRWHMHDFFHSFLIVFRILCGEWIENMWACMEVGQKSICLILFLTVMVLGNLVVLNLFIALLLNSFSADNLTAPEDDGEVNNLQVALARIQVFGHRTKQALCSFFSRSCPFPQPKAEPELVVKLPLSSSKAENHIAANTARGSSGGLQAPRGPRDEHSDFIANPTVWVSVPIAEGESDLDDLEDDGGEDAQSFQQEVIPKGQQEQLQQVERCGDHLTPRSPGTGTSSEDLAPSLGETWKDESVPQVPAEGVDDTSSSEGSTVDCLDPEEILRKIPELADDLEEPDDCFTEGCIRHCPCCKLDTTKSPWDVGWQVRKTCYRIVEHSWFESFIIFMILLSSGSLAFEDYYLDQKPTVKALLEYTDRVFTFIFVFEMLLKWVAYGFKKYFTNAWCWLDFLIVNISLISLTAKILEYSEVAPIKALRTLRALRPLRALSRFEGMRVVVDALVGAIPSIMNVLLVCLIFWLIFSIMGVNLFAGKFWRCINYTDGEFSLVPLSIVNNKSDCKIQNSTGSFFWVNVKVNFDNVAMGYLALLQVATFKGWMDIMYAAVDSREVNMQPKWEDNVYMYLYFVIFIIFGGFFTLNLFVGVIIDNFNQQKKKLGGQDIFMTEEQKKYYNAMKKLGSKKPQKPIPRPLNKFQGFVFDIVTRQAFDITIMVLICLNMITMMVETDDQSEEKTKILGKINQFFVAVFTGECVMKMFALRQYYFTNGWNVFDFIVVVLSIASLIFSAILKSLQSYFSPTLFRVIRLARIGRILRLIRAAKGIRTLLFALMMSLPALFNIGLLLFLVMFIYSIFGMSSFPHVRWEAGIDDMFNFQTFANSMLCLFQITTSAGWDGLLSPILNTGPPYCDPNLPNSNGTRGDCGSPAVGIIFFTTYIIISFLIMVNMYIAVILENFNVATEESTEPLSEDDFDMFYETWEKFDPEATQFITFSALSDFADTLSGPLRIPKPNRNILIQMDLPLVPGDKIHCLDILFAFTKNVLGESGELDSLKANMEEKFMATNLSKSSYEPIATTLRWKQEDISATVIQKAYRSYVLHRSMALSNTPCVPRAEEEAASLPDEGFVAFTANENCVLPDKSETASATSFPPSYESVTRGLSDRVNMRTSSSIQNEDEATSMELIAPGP
# UniProt Q8WTS6, sequence (whole entry, looked up): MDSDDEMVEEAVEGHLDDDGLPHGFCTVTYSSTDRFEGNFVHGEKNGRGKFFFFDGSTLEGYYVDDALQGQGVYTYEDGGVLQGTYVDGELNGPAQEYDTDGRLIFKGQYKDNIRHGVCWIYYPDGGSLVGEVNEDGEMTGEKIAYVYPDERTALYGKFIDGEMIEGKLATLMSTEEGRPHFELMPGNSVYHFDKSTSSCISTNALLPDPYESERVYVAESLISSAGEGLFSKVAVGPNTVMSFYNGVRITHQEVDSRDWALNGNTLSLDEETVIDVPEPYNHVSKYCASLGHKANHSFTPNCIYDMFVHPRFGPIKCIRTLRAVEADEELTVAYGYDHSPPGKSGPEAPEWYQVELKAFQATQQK
# UniProt C7FF04, sequence (whole entry, looked up): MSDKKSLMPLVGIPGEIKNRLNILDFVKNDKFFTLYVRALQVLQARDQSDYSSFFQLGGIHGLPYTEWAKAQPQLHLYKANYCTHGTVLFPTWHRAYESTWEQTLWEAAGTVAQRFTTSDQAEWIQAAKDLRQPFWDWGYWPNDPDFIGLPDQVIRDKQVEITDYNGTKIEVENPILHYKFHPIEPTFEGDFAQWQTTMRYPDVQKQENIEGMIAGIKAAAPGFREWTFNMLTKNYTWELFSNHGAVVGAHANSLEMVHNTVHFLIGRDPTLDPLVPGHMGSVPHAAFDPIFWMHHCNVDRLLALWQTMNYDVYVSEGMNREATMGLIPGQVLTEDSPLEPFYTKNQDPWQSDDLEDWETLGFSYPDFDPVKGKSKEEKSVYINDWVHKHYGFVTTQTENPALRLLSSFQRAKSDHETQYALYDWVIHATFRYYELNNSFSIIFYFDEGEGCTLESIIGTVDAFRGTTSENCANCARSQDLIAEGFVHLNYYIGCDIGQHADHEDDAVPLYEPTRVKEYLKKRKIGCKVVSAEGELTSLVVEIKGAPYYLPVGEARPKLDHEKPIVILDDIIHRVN
# UniProt P16662, sequence (whole entry, looked up): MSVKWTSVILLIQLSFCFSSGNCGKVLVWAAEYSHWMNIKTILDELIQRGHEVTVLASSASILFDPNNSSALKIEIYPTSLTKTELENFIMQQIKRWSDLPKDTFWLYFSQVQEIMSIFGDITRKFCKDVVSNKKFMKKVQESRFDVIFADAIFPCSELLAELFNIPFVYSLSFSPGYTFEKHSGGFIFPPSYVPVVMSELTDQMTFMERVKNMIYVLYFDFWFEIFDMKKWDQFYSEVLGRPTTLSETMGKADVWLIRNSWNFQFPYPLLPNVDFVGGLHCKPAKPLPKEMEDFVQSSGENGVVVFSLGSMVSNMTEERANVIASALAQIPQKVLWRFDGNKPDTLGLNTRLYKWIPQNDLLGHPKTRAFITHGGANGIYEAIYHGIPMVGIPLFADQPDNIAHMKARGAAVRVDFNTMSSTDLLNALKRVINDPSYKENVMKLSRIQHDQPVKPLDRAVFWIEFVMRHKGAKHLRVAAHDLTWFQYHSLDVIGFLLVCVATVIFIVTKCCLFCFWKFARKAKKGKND
# UniProt P08173, sequence (whole entry, looked up): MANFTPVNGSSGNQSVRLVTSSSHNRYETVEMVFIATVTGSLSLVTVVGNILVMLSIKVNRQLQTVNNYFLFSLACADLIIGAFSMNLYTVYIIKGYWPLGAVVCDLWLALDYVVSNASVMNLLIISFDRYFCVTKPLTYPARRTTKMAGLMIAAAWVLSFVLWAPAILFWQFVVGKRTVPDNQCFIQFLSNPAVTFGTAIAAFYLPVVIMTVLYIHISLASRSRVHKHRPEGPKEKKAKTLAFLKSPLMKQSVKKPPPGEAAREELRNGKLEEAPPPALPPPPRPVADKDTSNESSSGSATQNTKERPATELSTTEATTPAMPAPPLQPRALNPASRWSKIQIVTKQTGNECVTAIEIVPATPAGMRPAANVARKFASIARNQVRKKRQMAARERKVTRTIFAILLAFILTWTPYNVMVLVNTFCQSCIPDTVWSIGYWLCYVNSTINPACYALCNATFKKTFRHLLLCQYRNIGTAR
Substance,target,test,system,setting,scale,quantity,result
O=c1cc(-c2ccccc2OCc2ccc(-c3cn[nH]c3)cc2)ncn1C1CCCCC1O (centres unmarked),CHRM1,"positive allosteric modulator, IP1 accumulation",CHO-M1 cells,"10 µM, 60 min, 37 °C, added: ACh","relative to: ACh alone, higher = stronger potentiation",ΔpEC50 of ACh,2.15 ± 0.6 log units
O=C(O)[C@H]1O[C@@H](O[C@H]2c3cc4ccc5cccc6c7ccccc7c(c3C=C[C@@H]2O)c4c56)[C@H](O)[C@@H](O)[C@@H]1O (relative stereo),"UDP-glucuronosyltransferase 2B7 (UGT2B7, Homo sapiens, UniProt P16662)","glucuronidation, substrate",UGT-expressing HEK293 homogenate,normalized to UGT expression,,kcat,0.0011 ± 0.000117 s⁻¹
O=c1cc(-c2ccccc2OCc2ccc(Br)cc2)ncn1C1CCCCC1O (centres unmarked),CHRM1,"positive allosteric modulator, IP1 accumulation",CHO-M1 cells,"10 µM, 60 min, 37 °C, added: ACh","relative to: ACh alone, higher = stronger potentiation",ΔpEC50 of ACh,1.08 ± 0.44 log units
O=C(Nc1nc2cccnc2s1)c1cnccn1,"Muscarinic acetylcholine receptor M4 (CHRM4, Homo sapiens, UniProt P08173)","calcium mobilization, positive allosteric modulator",CHO expressing hM4 and Gqi5,"concentration not given, added: acetylcholine EC20",,activity,inactive
cardiac troponin I S166F,F1FO-ATP synthase (rat heart),ELISA,,concentration not given,,binding,no binding
O=c1cc(-c2ccccc2OCc2ccc(-c3cn[nH]c3)cc2)ccn1C1CCCCC1O (centres unmarked),CHRM1,"IP1 accumulation, positive allosteric modulator, operational allosteric model",human cells,"pKB fixed to published value, added: acetylcholine",,α (cooperativity),1.06 ± 0.08
C=CC(C)(CO)c1cc2cc(-c3ccc(O)cc3O)c(=O)oc2cc1O (centres unmarked),quinone reductase,inducer,Hepa1c1c7,,,concentration doubling activity,> 20 µM
CC[C@H](C)[C@H](NC(=O)[C@@H](NC(=O)[C@H](CC(=O)O)NC(=O)[C@H](CC(C)C)NC(=O)[C@H](CO)NC(C)=O)C(C)C)C(=O)N1CCC[C@H]1C(=O)N[C@H](C(=O)N[C@@H](C)C(=O)N[C@@H](CCC(N)=O)C(=O)N[C@@H](CC(C)C)C(=O)N[C@@H](CC(C)C)C(=O)N[C@@H](CO)C(=O)N[C@@H](CCSC)C(=O)N1CCC[C@H]1C(=O)N[C@@H](CO)C(=O)N[C@@H](CC(=O)O)C(=O)N[C@@H](CCC(N)=O)C(=O)N[C@@H](CC(=O)O)C(=O)N[C@@H](CC(N)=O)C(=O)N[C@@H](CC(N)=O)C(N)=O)C(C)C,"Matrix metalloproteinase-9 (MMP9, Homo sapiens, UniProt P14780)","substrate, LC-MS/MS",,"24 h, 37 °C, added: peptide to enzyme 20:1 w/w",,cleavage efficiency,~93% and 93%
CCN1CCN(C(C)C(=O)Nc2c(C)csc2C(=O)OC)CC1 (centres unmarked),"Sodium channel protein type 10 subunit alpha (SCN10A, Homo sapiens, UniProt Q9Y5Y9)",cell membrane chromatography,,,higher = stronger binding,capacity factor k′,43
B1,"Histone-lysine N-methyltransferase SETD7 (SETD7, Homo sapiens, UniProt Q8WTS6)","peptide methylation, substrate, MALDI-TOF MS",,"10 µM, 3 h, pH 8.0, 37 °C, enzyme 500 nM, added: SAM 30 µM",,methylation conversion,≥ 90%
O=c1cc(-c2ccccc2OCc2ccc([N+](=O)[O-])cc2)ncn1C1CCCCC1O (centres unmarked),CHRM1,"allosteric agonist, IP1 accumulation",CHO-M1 cells,"1 µM, unit not given",relative to: maximum ACh response,change in baseline activity,31.3 ± 2.7
COc1ccc(C(C)=O)c(OCc2cn(Cc3cc(=O)c(O)co3)nn2)c1,"PPO3 (Agaricus bisporus, UniProt C7FF04)","inhibitor, Lineweaver-Burk replot",mushroom,added: L-DOPA substrate,,Kis,0.849 µM
CCCn1cc(-c2ccc(COc3ccccc3-c3cc(=O)n(C4CCCCC4O)cn3)cc2)cn1 (centres unmarked),CHRM1,"positive allosteric modulator, IP1 accumulation",CHO-M1 cells,"10 µM, 60 min, 37 °C, added: ACh","relative to: ACh alone, higher = stronger potentiation",ΔpEC50 of ACh,2.02 ± 0.3 log units
O=C(O)c1ccccc1O,"unc-8 (Caenorhabditis elegans, UniProt Q21974, G387E)","ion current, two-electrode voltage clamp",Xenopus oocytes coexpressing MEC-2,"30 µM, -85 mV","relative to: uninjected oocytes, positive = inhibition",current change,-0.062 µA

# Repeated from above:
Substance,target,test,system,setting,scale,quantity,result
CCN1CCN(C(C)C(=O)Nc2c(C)csc2C(=O)OC)CC1 (centres unmarked),"Sodium channel protein type 10 subunit alpha (SCN10A, Homo sapiens, UniProt Q9Y5Y9)",cell membrane chromatography,,,higher = stronger binding,capacity factor k′,43
B1,"Histone-lysine N-methyltransferase SETD7 (SETD7, Homo sapiens, UniProt Q8WTS6)","peptide methylation, substrate, MALDI-TOF MS",,"10 µM, 3 h, pH 8.0, 37 °C, enzyme 500 nM, added: SAM 30 µM",,methylation conversion,≥ 90%
